Experimental data from different studies.
A part holds a random share of what one study measured.

Study 1
Target: Hepatocyte nuclear factor 3-alpha (Foxa1, Mus musculus, UniProt P35582, residues 1-468, full length assumed)
Method: EMSA with sequencing
Molecule type: double-stranded DNA, one strand shown
Matrix: in vitro
Tested at: 10 and 20 nM
Setting: whole designed probe, mean of two concentrations, ends assumed
Reference: negative control set to 0
Reading: higher = stronger binding
Constant ends, left off below: GTGAGCGGTGCCCATTGATGGGGAAC … TTTCACTGGGATCGTGGGGAC
Residues (chain): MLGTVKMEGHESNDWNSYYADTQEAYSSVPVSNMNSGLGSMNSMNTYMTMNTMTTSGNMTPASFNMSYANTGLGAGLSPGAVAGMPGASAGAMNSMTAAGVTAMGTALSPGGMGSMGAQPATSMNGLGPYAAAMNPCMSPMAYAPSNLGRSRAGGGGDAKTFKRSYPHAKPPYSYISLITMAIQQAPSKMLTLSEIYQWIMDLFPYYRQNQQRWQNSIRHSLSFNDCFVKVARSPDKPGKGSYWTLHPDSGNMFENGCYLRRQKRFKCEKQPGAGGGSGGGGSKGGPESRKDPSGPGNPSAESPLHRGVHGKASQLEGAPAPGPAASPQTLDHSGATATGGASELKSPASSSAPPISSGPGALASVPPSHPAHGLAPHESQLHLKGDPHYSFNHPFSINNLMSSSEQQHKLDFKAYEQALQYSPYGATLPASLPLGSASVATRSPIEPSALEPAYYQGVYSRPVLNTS
Strand | normalised bound fraction
ATCTTCCCCCTCTTCCTTGCCCCACCAGCTCACCTTCCCGGGTTATTTGCACAAAGGAAAATAAATAAAGCCGGCATTCGTTAACCCTCTTCACGCGCATACTGCTGTTTGCTCTGCATCTAACATGGTCCTTACGCGAGGCGTGGCTCCGGGAGAGCAAAGCACCGTGTCAGGCGCATGATCCGGGCTCGCC | 0.382 ratio
TTAACTGATTGGAACAGTTACTTGGAAACATTAAATTGGTGGCAGAAAAAGTGAAACAATTATAAATGCAATGATCAAAAACAGAAAATAAAAAGTAATCTTGAATTTAAGACAATGATCTAATCAAGAAGCAATGAATTCCTGAGTGAATGAGTATAGTGGGAAAAAACAGAGAGGAGTAAATATGGGAGCT | 0.00549 ratio
CAGCAAGGAATTTATAAGAAAATGATGTTGAGAAACCATTCTATTTCTCCAAGGAGCAGAGCCACCACACATTTACACAAGGATGTTCTTGCTTGTTTACACATACAACACAGTATGCTTCTAGGTGCAGTTGCATTCCAGGCAGCCCCGAGTGGCAGTCTCCCATTTTGGCATCTGTTGGCAGGAGGTTATC | 0.318 ratio
GTCCCTGGGCCTGGCTTGGGACAGACAGAGGCGTCATCTTGTTCTCATATGCGGGAAGGCTATGAAAAGAAAACCGCGTGTTGGTCCAAAATGTAAACAAGAATTACACTAGGATCTTTTGTTCTCACTCTGACATGGTCAGAATTAATTTGGAGGTCCAAAAAGAGGGCGTTTTGTTTTTTAATCTGAATTA | 0.335 ratio
CAGAGAGTGTTTGCAGTTGTTCATCCTAAATTACACTGTTGTTTTAGCCTGTAGAGTGCTCAGAGCTGATTAATAAACAGAAATTAAGTCACTAAATTACTTTTTGCTTCAAATCACAGTGTGCGACTCGAGTGGTTGATATCTCACTGATATTTGTGAATGCGTGGATGAGTGACTGGATCTGCTTGTGTGT | 0.138 ratio

Study 2
Target: RING finger protein unkempt homolog, zinc fingers 1-6, SBP tag (UNK, Homo sapiens, UniProt Q9C0B0, residues 30-357)
UniProt Q9C0B0, sequence (30-357, looked up): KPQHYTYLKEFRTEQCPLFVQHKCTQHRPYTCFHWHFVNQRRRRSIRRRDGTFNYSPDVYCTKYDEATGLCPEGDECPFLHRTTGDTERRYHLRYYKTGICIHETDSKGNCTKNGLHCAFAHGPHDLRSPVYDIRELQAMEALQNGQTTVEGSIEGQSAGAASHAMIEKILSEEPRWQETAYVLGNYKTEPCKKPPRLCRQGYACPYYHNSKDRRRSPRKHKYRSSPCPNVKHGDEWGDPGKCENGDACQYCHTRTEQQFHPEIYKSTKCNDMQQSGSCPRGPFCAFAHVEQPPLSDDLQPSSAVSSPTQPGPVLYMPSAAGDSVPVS
Method: RNA Bind-n-Seq
Molecule type: RNA
Matrix: in vitro
Tested at: 100 nM
Setting: RNA with constant flanks, vertebrate orthologous sites, ends assumed
Reference: input RNA pool
Reading: higher = stronger binding
Constant ends, left off below: GGGAGUUCUACAGUCCGACGAUC … CAACAGAGGAUUGAGCAUCA
Strand | bound/input enrichment [ratio]
GGAAAUUCCCAUUGUCACUGAGAACCACCAAAUCUGACUUUUACAUUUGGUCUCAGAAUUUAGGUUCCUGCCCUGUUGGUUUUUUUUUUUUUUUUUAACAGUUUUCAAAAGUUCUUAAAG | 0.957
CAUAGGCUGUUUAAGCUGUGGGAAAAUGAGCUUUUCUUUUUAUAUAUAUAUAUAUUUAAAUAGGAUACUUUUAUAUGAUGGGUGCUUUGAGUGUGAAUGCAGCAGGCUCUCUAUUUCAGA | 1.12
UGUAGUUUUUUUUUUUAUUUCAAGCAAAACUUUAUUGUACUUGAAUGCGUCCUGUUAGCACACCAUAGACUUGCUGUAAAUGUACUCAUGUCCCCAGUAUCUACGUUCUUUCUAUGAAAG | 1.61
AAAUUUAUUUUAUGCCCUGGACUCCCUACCGCACUGAUACUUUAAUAGAAUAUGCUUCUUUAGAAGAUUUUCAAAACAGCCGCCAGACAACAACCUACAAACUUCCAAACCGAGUAGAUG | 1.57
GUUUUGUUUUGUUGCACGUGACGGUUUGUAUUGAGGACCCUCUGAGGAAGAGGGGUGCUGUAGCAGUGGUCCCUGCGUGCCUGGCUCCAGUGUCCUGCCCUCCCCCCCCUCGCCAUGGCU | 0.779
GAGAGUCCCCAUUGUCACUGAGAACCACCAAAUCUGACUUUUACAUUUGGUCUCAGAAUUUAGGUUCCUGCCCUGUUUUUUUUUUUUUUUUUUUUUUAAACAGUUUUCAAAAGUUCUUAA | 1.83
UCCAGUCUUACACUUAUGGUUGGCCUCAAAUCUAUUACAUUUAUGAUACUGUAGUAUAUCUAGUUGAGUUUAAUAUUUUUUUAUUAGCCUGUAAAUAAAGAUGGCAUCUUCUACAUUAAA | 0.928
CCACGUUAAACAACUCAGGGCAGUAUUCCCGAUAUCCUUAUAGUAACCUUAAUCAGGGAUUAGUUAAUAAUACAGGGAUGAAUCAGAAUUUAGGCCUUACAAACAACACUCCAAUGACUC | 1.97

Study 3
Target: Prothrombin, mature alpha-thrombin (F2, Homo sapiens, UniProt P00734)
Method: aptamer microarray, sandwich
Molecule type: DNA with 2'F-ANA
Matrix: in vitro
Tested at: 200 nM
Setting: whole 15-mer aptamer, many near background
Added: Cy3 exosite-II aptamer, 400 nM
Reading: higher = stronger binding
Strand: GGTTGGTGTGGTTGG
Modification | mean fluorescence intensity
2'F-ANA at 3 10 13 14 | 429 a.u.
2'F-ANA at 1 2 3 4 5 6 7 8 11 12 | 114 a.u.
2'F-ANA at 5 6 10 11 14 | 44.4 a.u.
2'F-ANA at 1 2 3 4 6 7 11 14 15 | 61.3 a.u.
2'F-ANA at 1 2 3 7 9 11 13 | 175 a.u.
2'F-ANA at 1 2 4 8 9 10 11 13 | 49.1 a.u.
2'F-ANA at 2 4 5 7 8 11 13 15 | 57.7 a.u.
2'F-ANA at 1 3 6 7 8 13 | 255 a.u.
2'F-ANA at 1 2 3 4 5 6 9 10 12 13 14 15 | 67.4 a.u.
2'F-ANA at 7 10 15 | 206 a.u.
2'F-ANA at 1 3 5 8 10 14 | 49.4 a.u.
2'F-ANA at 2 10 12 13 | 179 a.u.
2'F-ANA at 2 3 5 7 8 9 11 12 13 14 15 | 62.6 a.u.
2'F-ANA at 2 3 4 5 6 7 9 10 13 14 15 | 50.6 a.u.
2'F-ANA at 5 6 7 8 10 14 15 | 48.4 a.u.
2'F-ANA at 6 10 11 14 15 | 91.5 a.u.
2'F-ANA at 1 2 4 5 6 7 9 11 12 13 14 | 49.5 a.u.
2'F-ANA at 5 6 10 11 15 | 52.1 a.u.
2'F-ANA at 1 2 4 5 6 8 9 10 11 13 | 88.1 a.u.
2'F-ANA at 1 5 6 7 8 12 14 15 | 50.4 a.u.
2'F-ANA at 4 6 7 9 11 12 14 15 | 80.8 a.u.
2'F-ANA at 1 2 4 5 8 15 | 67.8 a.u.
2'F-ANA at 1 3 4 7 10 11 12 | 92 a.u.
2'F-ANA at 2 3 5 6 7 8 9 13 | 72.8 a.u.
2'F-ANA at 1 2 5 6 13 14 15 | 55.3 a.u.

Study 4
Target: Histone acetyltransferase KAT6A, both winged helices, GST fusion (KAT6A, Homo sapiens, UniProt Q92794, residues 1-181)
Method: protein binding microarray
Molecule type: double-stranded DNA, one strand shown
Matrix: in vitro
Tested at: not given
Setting: 8-mer, flanks averaged, mean of 2 arrays, mostly near background
Reference: not given
Reading: higher = stronger binding
Target sequence (chain): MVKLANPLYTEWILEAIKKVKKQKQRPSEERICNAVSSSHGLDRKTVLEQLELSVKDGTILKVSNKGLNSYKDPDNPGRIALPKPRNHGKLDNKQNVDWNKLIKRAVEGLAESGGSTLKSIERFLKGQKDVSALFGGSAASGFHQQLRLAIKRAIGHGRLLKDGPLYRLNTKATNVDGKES
Strand | E-score
AGTAAGGA | -0.0861
CTAATGTA | -0.0342
ACTGGACA | -0.114
CAGGTGGG | -0.166
GCCCTCGA | -0.138
CCGTATAC | 0.119
AGACTCCC | -0.143
CTCCACAG | -0.187
AACCGAGC | 0.173
AATACCTC | -0.0712
CTCTGGTA | -0.205
CGTTACAG | -0.0614
AAATTATT | -0.0329
CAGTGCGC | 0.236
GCCTGTAC | 0.00571
ACTTCCCA | -0.137
AGCCTACA | -0.286
ATAGCATA | -0.0496
GAGTTTTA | -0.033
GTAAAAAC | -0.125
CGGGACAC | 0.18

Repeated from above (study 3):
Modification | mean fluorescence intensity
2'F-ANA at 2 10 12 13 | 179 a.u.
2'F-ANA at 4 6 7 9 11 12 14 15 | 80.8 a.u.
2'F-ANA at 1 2 3 4 5 6 7 8 11 12 | 114 a.u.
2'F-ANA at 1 2 5 6 13 14 15 | 55.3 a.u.
2'F-ANA at 1 2 3 4 5 6 9 10 12 13 14 15 | 67.4 a.u.
2'F-ANA at 7 10 15 | 206 a.u.
